Published values collected from several papers.
Every numbered part comes from another study and shows a few of its results, in no order. Substitutions count along the parent as printed.

Study 1 — method: DHFR PCA, deep sequencing; sample: yeast; with: (+)-ABA 0 µM; baseline: wild-type fitted maximum; reading: higher = stronger binding
Target: ABI1, truncated, D143A, DHFR fusion (Arabidopsis thaliana)
Notes: methotrexate growth selection, single substitutions
Starting sequence: PYL1, truncated, DHFR fusion (Arabidopsis thaliana); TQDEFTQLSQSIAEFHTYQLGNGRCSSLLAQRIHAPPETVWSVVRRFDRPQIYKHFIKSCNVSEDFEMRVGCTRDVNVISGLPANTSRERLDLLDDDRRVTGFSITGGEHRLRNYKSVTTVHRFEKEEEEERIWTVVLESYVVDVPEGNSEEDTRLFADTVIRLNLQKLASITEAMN
Variant	relative binding score
D3A	24.8%
I52S	8.77%
D96A	1.05%
V137Q	0.197%
L166R	2.69%
V43F	6%
N85I	59%
W134A	4.88%
E174I	-4.48%
R24A	5.98%
N77D	36.9%
H122L	-4.37%
L28A	2.69%
Y115L	0.41%
S140L	4.11%
E64C	10.9%
R113F	-4.07%
I33D	0.0294%

Study 2 — method: competition protein-binding microarray; molecule type: double-stranded DNA, one strand shown; sample: in vitro; tested at: 2 µM; with: Pho4 competitor, 0.05 µM; reading: higher = stronger binding; shared flanks, not repeated: … GTCTTGATTCGCTTGACGCTGCTG
Target: Centromere-binding protein 1, full length, His-tagged (CBF1, Saccharomyces cerevisiae, UniProt P17106, residues 1-351)
UniProt P17106, sequence (whole entry, looked up): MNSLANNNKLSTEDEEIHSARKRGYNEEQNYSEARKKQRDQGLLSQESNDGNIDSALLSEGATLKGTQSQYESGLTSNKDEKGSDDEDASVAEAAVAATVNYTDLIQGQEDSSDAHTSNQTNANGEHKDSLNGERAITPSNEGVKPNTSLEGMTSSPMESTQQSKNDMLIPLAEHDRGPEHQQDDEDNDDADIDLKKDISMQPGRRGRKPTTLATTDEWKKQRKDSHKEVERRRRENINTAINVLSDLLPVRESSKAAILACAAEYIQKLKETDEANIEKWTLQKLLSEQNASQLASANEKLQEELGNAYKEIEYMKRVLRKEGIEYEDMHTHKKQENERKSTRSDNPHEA
Notes: whole 60-bp probe, lowest competitor level
Sequence	fluorescence intensity [a.u.]
ATTACCATTCTCCGTCACGTGCAAATAAAACCACTC	9140
GACTCATTTCTTAGTGACGTTGGTGACAGGAATATG	98.3
CTTTCCCGATCTTGTCACGTGACTTTAGCACATTTG	23000
CCGCCCGATATATATCACATGTAGCTGTGTAATATG	663
CCTTGGCTGCCAAGGCCCGTGGTGAGCCATTGACCT	48.9
CGGGGTTAAGTTTGTGCGGTGGGTGGCTTGCAGCAG	73.5
CGGTGATAGCGGTTTCACGTGTGTTGATTGTGGTAC	712
AGCAACCAAAGTACCCACGTGATTGTCTCCTGCCAA	2950
CTTCTGTAAATTTGGTCGGTGGGTGGACGCGCCCCG	77.9
GTCTTGTCTCATTTTCACGTGGAATTCCCCACTTCA	373
ATTGTTAAAGTAATCCACGTGTAGTTGATTATTGAT	684
CTTTCCCGATCTTGGTTGGTGGGTGTAGCACATTTG	66.1
CTAACGAAGGTTTGAGGAGTGGGTGACAAGCCAAGT	60.7
TAGTGTGTAATGTAAAGCGTGCGATTCTTGATCTGG	82.4
TCTCTAGGTGGTTGGGCAAATCTATCAATATTCTTG	63.8
CATACCCAACCTTCCCACGTGTTTTAAGATATTTGT	945
ACTCCACCTTTGAAAACGGTGTGAATTCGCCCTTTC	67.2
CTAACGAAGGTTTGATACGTGGGTGACAAGCCAAGT	76.5
TGCGCAACAACTTGTCACGTGGGTGTATGTCTAGAA	4240

Study 3 — method: RNA Bind-n-Seq; molecule type: RNA; sample: in vitro; tested at: 200 nM; notes: whole 134-nt RNA, ends assumed; with: 150 mM LiCl; baseline: input library; reading: higher = stronger binding; library: 7-deaza-guanosine replaces G
Target: Fragile X messenger ribonucleoprotein 1, C-terminal low-complexity region (Fmr1, Mus musculus, UniProt P35922)
Shared flanks, not repeated: GGGAGUUCUACAGUCCGACGAUC … UGGAAUUCUCGGGUGUCAAGG
Sequence	log2 enrichment
CAAGUCCUGUGCUACACAUCGUAUGUACCGAAUCGGAAAAGGAAAAGGGGAAAAGGAAAGUAUUAUGUUACGCCGUUCGGAUCUGCACUU	-1.09
UGGCCCUGGUGGCAUGCGGGGAGGAAGAGGUGGCCUCAUGGAUCGUGGUGGUCCCGGUGGAAUGUUCAGAGGUGGCCGUGGCGGAGACAG	-0.501
GCAGGAAGUAAAAACAAAUGGAAAUGCUUCGGAUAGUGGCAGGGGUGGGGGUUGCUAAGGAAAAAGUGGGAUGGGAGUGGGUAAAGAGUU	1.75
UCCUGUGCUACACAUCGUAUGUACCGAAUCGGGGUUUGGGGUUUUUUUGGGGAAAGGGGAAAGUAUUAUGUUACGCCGUUCGGAUCUGCA	-0.425
CUGUGCUACACAUCGUAUGUACCGAAUCGGGCCCCCCCGGGCCCCCCCGGGCCCCCCCGGGGAAAGUAUUAUGUUACGCCGUUCGGAUCU	-0.588
AGUCCUGUGCUACACAUCGUAUGUACCGAAUCGGAAAAAGGGAAAAAGGGAAAAAGGAAAGUAUUAUGUUACGCCGUUCGGAUCUGCACU	-1.39
AGUCCUGUGCUACACAUCGUAUGUACCGAAUCGGGUUUUUGGGAGGGUUUUUUUGGGAAAGUAUUAUGUUACGCCGUUCGGAUCUGCACU	-1.41

Study 4 — method: RNA Bind-n-Seq; molecule type: RNA; sample: in vitro; tested at: not given; notes: RNA with constant flanks, ends assumed; baseline: input RNA pool; reading: higher = stronger binding
Target: RING finger protein unkempt homolog, zinc fingers 1-6, GST-SBP tag (UNK, Homo sapiens, UniProt Q9C0B0, residues 30-357)
UniProt Q9C0B0, sequence (30-357, looked up): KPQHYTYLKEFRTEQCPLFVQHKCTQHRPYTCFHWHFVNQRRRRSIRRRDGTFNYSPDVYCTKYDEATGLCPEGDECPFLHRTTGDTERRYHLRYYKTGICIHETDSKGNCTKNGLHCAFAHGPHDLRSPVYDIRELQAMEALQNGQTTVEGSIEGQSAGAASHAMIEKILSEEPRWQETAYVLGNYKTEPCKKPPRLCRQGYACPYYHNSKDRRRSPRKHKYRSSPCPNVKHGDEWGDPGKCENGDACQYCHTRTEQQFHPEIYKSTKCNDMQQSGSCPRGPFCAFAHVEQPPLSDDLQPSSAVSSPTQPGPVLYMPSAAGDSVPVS
Shared flanks, not repeated: GGGAGUUCUACAGUCCGACGAUC … CAACAGAGGAUUGAGCAUCA
Sequence	bound/input enrichment
ACGCAUGGAAUCUUCUCUGGCCCUGCCAUUUCUCGCAUCAACAAUGCAUGCUUUGAAGCAGCCGCCGUUACCAAUACCAUACCUCAGGAAGACAAGAUGAAACACUGCUCCAAAAUACAG	0.116 ratio
CCUGACAGUAUGCUGGCCCACAUGUUUAAGGACAAAGGUGUCUGGGGAAAUAAGCAAGAUCACCGAGGAGCUUUCUUAAUUGACCGAAGUCCUGAGUACUUCGAACCCAUUUUGAACUAC	0.153 ratio
AUAAUGUGUGUGGCUGGUAUUGGACUUGUUGUAUUAUUCUUCAGUUGGAUGCUCUCUAUUUUCCGAUCUAAAUAUCAUGGCUACCCAUACAGCUUUCUGAUGAGUUAAAAAGGUCCCAGA	0.212 ratio
CCAUAUGAAAUGUGUAGCAGUGGCUUGGUACAAGCACUUCUUACUGUGUUAAACAACCGCAUGGAUUUGGAUAUGAAACAAGAUUGUAGUCAACUGGUAGAAAGAAUAAAUGUUUUUAAA	12.1 ratio
AGAGAAGAGUUGGUUGAUCGUGUUUUUGAUGAAAGUCUCAACUUCCGAAAGAUACCUCCAUCCGUUCAUUCUAAAACACCAGAAGGAAACAACGGUCGGUCUGUUGACUCGAGGCCUCAG	0.137 ratio

Study 5 — method: RNA Bind-n-Seq; molecule type: RNA; sample: in vitro; tested at: 365 nM; baseline: no-protein control; reading: higher = stronger binding
Target: RNA binding protein fox-1 homolog 2, RRM domain, GST-SBP tag (RBFOX2, Homo sapiens, UniProt O43251-10, residues 100-194)
Notes: natural RNA segment, single round, ends assumed
Shared flanks, not repeated: GGGAGUUCUACAGUCCGACGAUC … UGGAAUUCUCGGGUGCCAA
Target sequence (chain): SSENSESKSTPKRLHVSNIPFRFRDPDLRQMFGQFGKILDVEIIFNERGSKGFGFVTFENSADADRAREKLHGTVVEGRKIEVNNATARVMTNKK
Sequence	RBNS enrichment (R)
UUGUCUAAACUAUUCAGACACUUGGAGAAUAUUCUCCUUGAAUUAAAAAAGAUGAUUAAGAAGGAUGCUCCUACAACUGUAUCCUGACAGUUAAGUCACAGCUUAAUGUG	0.251
UUUGGACAGCACAUAUGGUCCAUUGUGUACAAGUCAGUAAUCUGGAUUUCAGUACAUGGAUUUAAAAGGCAACAAUCCAUCACUGGUUUGUGUGUUUUUGGUUAAGUUUC	0.832
ACUUAAAAAGGGUUCUUUGUUGGGAGUCAAGUGACAGAGCAGACCUGGCCGCAGGGAGUUGUUCUGCUUCUGCUUUACCUCUCAGGACCAUUCCCAGGAGGAAAAGGUGG	0.162
UAGACAUUCCGUAAGAGAAUCCAGAAUGAUAGCAGGAUCAGGAAAGAAAUGGAGCCAAAUCUGCUCUAAGGUGAAUAGAGACUUAUUUUUCUUUAUUAAAGUAUUCUUGU	1.66
UCUUGCUGCCCAGGCUGGAGUGCAAUGGUGCAAUGACCUCGGCUCACUGCAACCUCUGCCUCCUGGGUUCAAGUGAUUCUCCAGCCUCAGCCUCCCGAGUAGCUGGGAUU	0.211
UGUUUUCAUAUUACAGAGUGAAUUUGUAUUUAAACAAAAAUUUAAAUUUUGGAAUCCUCUAAACAUUUUUGUAUCUUUAAUUGGUUUAUUAUUAAAUAAAUCAUAUAAAA	1.19
AACUAUGUGGGUCUGUGAAUUUCUUUAAUGUCUAAGAAAUCCAGCUUCAUAAUUUCCAUGAUACAAAGAUCUUUUUUCAGGUGGAUUUUUACCUUUGUUCCUUUUGCUCU	1.25
CUUUUUAAAAUGAUUUAGACCGAUUUUCAGAUUUUAUUUCGUUAUGAUUAAAGAUGUCUCAUGUACUUGGAAAAGUGAGCAUUUUUUUUUUUUUUGUAUUUCACUUUCAU	1.39
UAGAAAUACCUUUCCUGUAGCUUUUAUAGUCAUUGUUUUUCAAAGACGAUAUACCAGCCCUCACCCAGGUUUUAAAAAAGCACUGGUAGGCAUAGAAUAGGUGCUCAGUA	0.285
UGUCGCCAGUUCUCACUGUCUGUCAGCUCACUGAGCUGCCCUUCAUCCAUGGUCCUUGAGCUCCAGAGCGGAGGGAGAUUCUCUCAGCAGGCCCAUCUCACAAAGACUGG	0.262
AAAUGACCACUCCGUAAUAGAACAUUUCAUUCCGUCAGCUGGCCCCCACUUCCUUUCACUCACGCAUGGCCACAGCAUCUCUCUCUAGUAGCCGAGAGUGUCAUUCUCUC	4.23
ACUUAGGAAGUAAAUAUCUUUUGAAUUAGAGAAAGUGUUGGGACAGAAAGUACUUUAUGUAACUAAGUGGGCUGUUCAGAAGCUUAGAGGUCAUUUUUUGUAAUUUUCUU	1.2

Study 6 — method: protein binding microarray; molecule type: double-stranded DNA, one strand shown; sample: in vitro; tested at: not given; baseline: not given; reading: higher = stronger binding
Target: Histone acetyltransferase KAT6A, winged helix 1, GST fusion (KAT6A, Homo sapiens, UniProt Q92794, residues 1-85)
Notes: 8-mer, flanks averaged, mean of 2 arrays, mostly near background
Construct (chain): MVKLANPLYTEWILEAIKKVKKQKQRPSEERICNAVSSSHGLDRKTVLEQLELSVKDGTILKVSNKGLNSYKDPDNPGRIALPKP
Sequence	E-score
GCAACCTA	-0.142
ATAGCCAG	-0.227
AGGCGGAC	0.205
CATTCTAG	-0.179
AAATGCGT	0.163
ATGCGCAC	0.352
ACAGATCT	-0.0674
GGGATCTA	-0.118
GGGTCACA	-0.00914
GCGATAAA	0.0461
CTTATGTA	-0.253
GTACTCCA	-0.0121
GAGCATAC	-0.196
AGCTTGGA	-0.3
ATCTCCCC	-0.0376
ATTGACCC	-0.0119
ACTTGCCG	0.176
ACAGATGA	-0.279
CGTGTTTA	0.151
CAGTATAG	-0.146
CATAGCCG	0.262
CCGGAACC	0.187

A few entries again (study 2):
Sequence	fluorescence intensity [a.u.]
TGCGCAACAACTTGTCACGTGGGTGTATGTCTAGAA	4240
CATACCCAACCTTCCCACGTGTTTTAAGATATTTGT	945
AGCAACCAAAGTACCCACGTGATTGTCTCCTGCCAA	2950
CGGTGATAGCGGTTTCACGTGTGTTGATTGTGGTAC	712
ATTGTTAAAGTAATCCACGTGTAGTTGATTATTGAT	684
ACTCCACCTTTGAAAACGGTGTGAATTCGCCCTTTC	67.2
